# Measurements pooled from the literature.
# Lines come from different studies, so protocols differ.
# CDA: Cytidine deaminase (CDA, Homo sapiens, UniProt P32320)
# UniProt P32320, sequence (whole entry, looked up): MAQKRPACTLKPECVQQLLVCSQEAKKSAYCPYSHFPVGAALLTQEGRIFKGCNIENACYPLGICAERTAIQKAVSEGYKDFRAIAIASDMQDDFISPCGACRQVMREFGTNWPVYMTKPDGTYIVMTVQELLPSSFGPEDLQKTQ
# DNA polymerase III PolC-type: DNA polymerase III PolC-type (Bacillus subtilis, UniProt P13267)
# UniProt P13267, sequence (whole entry, looked up): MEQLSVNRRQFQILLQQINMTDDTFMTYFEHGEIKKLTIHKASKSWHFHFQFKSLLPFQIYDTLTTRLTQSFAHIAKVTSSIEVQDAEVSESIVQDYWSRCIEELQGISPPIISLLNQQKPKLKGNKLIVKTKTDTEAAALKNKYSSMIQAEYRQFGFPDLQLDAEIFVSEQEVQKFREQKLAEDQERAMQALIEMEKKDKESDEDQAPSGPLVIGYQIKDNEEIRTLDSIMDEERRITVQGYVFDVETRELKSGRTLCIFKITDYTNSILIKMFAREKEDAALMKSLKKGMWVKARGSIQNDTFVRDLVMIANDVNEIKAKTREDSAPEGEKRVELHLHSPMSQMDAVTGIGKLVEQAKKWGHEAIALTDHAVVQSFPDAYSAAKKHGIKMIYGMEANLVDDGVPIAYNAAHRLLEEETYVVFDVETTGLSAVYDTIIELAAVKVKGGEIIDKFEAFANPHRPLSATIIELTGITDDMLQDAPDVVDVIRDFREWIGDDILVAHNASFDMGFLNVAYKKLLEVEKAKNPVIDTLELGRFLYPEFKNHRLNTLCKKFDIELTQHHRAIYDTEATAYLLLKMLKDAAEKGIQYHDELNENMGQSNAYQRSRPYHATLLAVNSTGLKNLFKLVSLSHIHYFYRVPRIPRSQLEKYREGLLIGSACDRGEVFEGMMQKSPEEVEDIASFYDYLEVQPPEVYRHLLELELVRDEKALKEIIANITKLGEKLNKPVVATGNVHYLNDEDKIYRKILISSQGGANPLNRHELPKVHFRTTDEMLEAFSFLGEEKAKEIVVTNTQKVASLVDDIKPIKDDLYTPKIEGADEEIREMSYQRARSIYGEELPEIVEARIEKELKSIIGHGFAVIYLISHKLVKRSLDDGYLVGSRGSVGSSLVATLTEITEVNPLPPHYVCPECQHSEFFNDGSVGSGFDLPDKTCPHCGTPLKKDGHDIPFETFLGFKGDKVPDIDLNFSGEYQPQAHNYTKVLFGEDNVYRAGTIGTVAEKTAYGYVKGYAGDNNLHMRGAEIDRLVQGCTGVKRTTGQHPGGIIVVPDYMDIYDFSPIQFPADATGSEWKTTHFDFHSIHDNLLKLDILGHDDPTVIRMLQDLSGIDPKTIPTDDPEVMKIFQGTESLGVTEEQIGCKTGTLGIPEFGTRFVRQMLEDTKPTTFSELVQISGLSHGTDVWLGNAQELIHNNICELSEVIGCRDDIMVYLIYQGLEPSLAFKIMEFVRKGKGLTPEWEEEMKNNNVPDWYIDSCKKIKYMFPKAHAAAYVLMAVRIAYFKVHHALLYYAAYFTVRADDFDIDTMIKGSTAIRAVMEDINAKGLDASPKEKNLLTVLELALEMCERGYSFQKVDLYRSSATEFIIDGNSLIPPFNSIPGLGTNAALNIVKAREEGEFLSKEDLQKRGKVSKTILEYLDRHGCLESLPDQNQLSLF
# ADRA2B: Alpha-2B adrenergic receptor (ADRA2B, Homo sapiens, UniProt P18089)
# UniProt P18089, sequence (whole entry, looked up): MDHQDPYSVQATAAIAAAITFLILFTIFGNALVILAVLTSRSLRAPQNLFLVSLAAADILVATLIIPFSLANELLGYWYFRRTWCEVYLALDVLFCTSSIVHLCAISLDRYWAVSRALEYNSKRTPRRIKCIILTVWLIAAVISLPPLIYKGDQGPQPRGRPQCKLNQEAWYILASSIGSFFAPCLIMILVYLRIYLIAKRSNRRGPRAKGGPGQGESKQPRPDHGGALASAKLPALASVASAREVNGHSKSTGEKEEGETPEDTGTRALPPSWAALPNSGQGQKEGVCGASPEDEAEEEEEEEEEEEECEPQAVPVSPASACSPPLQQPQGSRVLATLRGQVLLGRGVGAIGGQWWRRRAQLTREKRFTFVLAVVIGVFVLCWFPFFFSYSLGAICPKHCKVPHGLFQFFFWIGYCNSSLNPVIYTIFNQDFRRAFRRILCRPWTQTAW
# UniProt P50613, sequence (whole entry, looked up): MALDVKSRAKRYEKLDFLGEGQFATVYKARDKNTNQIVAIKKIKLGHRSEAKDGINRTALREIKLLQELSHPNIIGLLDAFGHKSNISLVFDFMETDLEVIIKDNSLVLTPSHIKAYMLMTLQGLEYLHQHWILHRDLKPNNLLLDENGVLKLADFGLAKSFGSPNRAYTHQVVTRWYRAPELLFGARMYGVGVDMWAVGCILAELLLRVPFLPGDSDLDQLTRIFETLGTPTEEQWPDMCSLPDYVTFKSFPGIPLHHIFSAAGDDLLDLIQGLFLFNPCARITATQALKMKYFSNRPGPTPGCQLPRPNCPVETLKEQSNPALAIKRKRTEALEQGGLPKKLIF
# UniProt P08173, sequence (whole entry, looked up): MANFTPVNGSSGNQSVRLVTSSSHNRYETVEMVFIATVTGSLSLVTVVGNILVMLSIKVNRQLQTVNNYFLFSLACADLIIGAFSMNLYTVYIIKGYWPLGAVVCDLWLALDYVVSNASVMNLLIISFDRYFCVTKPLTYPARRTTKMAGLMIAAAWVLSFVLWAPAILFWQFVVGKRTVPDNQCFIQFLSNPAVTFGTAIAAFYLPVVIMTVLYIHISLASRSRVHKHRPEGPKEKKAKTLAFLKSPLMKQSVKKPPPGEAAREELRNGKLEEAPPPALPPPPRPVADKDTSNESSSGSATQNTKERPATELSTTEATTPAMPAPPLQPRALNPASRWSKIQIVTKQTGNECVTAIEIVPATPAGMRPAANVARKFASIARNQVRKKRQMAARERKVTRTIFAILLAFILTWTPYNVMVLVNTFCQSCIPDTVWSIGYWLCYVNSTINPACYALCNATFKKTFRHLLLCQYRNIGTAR
SMILES,target,assay,system,conditions,Ki
Nc1ccn([C@@H]2O[C@H](CO)[C@@H](O)[C@H]2O)c(=O)c1,CDA,inhibitor,,pH 7.5,500 nM
O=c1[nH]c(NCc2ccc(Cl)c(Cl)c2)nc2ncn(CCN3CCOCC3)c12,DNA polymerase III PolC-type,"enzyme activity, inhibitor",,"truncated, dGTP omitted, 4% DMSO",340 nM
O=c1n(CCCN2CCN(c3cccc(Cl)c3)CC2)nc2ccccn12,"CHRM4 (Homo sapiens, UniProt P08173)",,,,> 10000 nM
CCc1cc(Nc2cc(=O)n(CCCCN3CCOCC3)c(=O)[nH]2)ccc1C,DNA polymerase III PolC-type,"enzyme activity, inhibitor",,"truncated, dGTP omitted, 4% DMSO",53 nM
FC1CCN(c2ccc(-c3ccc4sccc4n3)cn2)CC1,"Alpha-synuclein, aggregates (SNCA, Homo sapiens, UniProt P37840)",,Parkinson's disease brain homogenate,with: 1 nM [3H]asyn-44,31.9 nM
O=c1[nH]c(NCc2ccc(Cl)c(Cl)c2)nc2ncn(CCCN3CCOCC3)c12,DNA polymerase III PolC-type,"enzyme activity, inhibitor",,"truncated, dGTP omitted, 4% DMSO",160 nM
C[C@@]1(O)CCC[C@H]1n1c(=O)c(C(F)F)cc2cnc(NC3CCN(S(C)(=O)=O)CC3)nc21,"CDK7 (Homo sapiens, UniProt P50613)","kinase activity, inhibitor, fluorescence",,,293 nM
CCc1cc(Nc2cc(=O)[nH]c(=O)[nH]2)ccc1C,DNA polymerase III PolC-type,inhibitor,,,280 nM
O=C1NC(O)CCN1[C@H]1C[C@H](O)[C@@H](CO)O1 (stereo partly drawn),CDA,inhibitor,,pH 7.5,37 nM
CNC(=O)[C@@]12C[C@@H]1[C@@H](n1cnc3c(NC)nc(C#Cc4cccs4)nc31)[C@H](O)[C@@H]2O,ADRA2B,radioligand binding (PDSP),,,1000 to 10000 nM
O=[N+]([O-])c1ncn(C2OC(CO)C(O)C2O)c1S (stereo not drawn),CDA,inhibitor,,pH 7.5,256000 nM
CNC(=O)[C@@]12C[C@@H]1[C@@H](n1cnc3c(NC)nc(C#C[c-]4cccc4)nc31)[C@H](O)[C@@H]2O.[Fe+2].c1cc[cH-]c1,ADRA2B,radioligand binding,,,571 nM

# For quick reference, copied from above:
SMILES,target,assay,system,conditions,Ki
Nc1ccn([C@@H]2O[C@H](CO)[C@@H](O)[C@H]2O)c(=O)c1,CDA,inhibitor,,pH 7.5,500 nM
O=[N+]([O-])c1ncn(C2OC(CO)C(O)C2O)c1S (stereo not drawn),CDA,inhibitor,,pH 7.5,256000 nM
